Results pooled from the literature.
Parts stem from different laboratories: compare values within a part only. Values joined by “and” are separate records of one study, mostly repeats; a detail may differ.
Chain of UniProt Q00534 (whole entry, looked up): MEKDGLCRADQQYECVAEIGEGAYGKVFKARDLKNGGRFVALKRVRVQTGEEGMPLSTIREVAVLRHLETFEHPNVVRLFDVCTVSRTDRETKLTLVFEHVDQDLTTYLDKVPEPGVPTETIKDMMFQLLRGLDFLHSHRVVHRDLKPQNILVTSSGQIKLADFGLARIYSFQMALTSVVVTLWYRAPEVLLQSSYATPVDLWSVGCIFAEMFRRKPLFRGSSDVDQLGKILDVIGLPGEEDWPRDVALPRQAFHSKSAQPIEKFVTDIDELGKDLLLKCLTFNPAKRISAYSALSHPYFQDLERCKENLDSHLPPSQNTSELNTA
Chain of UniProt Q9HBY8 (whole entry, looked up): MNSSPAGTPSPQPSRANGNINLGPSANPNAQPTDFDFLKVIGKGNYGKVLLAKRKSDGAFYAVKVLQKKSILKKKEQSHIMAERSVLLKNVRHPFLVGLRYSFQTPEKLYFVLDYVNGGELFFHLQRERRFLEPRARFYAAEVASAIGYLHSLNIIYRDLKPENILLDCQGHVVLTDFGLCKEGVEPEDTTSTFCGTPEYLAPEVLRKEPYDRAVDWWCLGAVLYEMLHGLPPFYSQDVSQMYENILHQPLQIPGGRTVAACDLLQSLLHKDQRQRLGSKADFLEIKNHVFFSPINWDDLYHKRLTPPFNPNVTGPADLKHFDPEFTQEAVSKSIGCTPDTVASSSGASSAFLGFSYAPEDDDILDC
Chain of UniProt P43250 (whole entry, looked up): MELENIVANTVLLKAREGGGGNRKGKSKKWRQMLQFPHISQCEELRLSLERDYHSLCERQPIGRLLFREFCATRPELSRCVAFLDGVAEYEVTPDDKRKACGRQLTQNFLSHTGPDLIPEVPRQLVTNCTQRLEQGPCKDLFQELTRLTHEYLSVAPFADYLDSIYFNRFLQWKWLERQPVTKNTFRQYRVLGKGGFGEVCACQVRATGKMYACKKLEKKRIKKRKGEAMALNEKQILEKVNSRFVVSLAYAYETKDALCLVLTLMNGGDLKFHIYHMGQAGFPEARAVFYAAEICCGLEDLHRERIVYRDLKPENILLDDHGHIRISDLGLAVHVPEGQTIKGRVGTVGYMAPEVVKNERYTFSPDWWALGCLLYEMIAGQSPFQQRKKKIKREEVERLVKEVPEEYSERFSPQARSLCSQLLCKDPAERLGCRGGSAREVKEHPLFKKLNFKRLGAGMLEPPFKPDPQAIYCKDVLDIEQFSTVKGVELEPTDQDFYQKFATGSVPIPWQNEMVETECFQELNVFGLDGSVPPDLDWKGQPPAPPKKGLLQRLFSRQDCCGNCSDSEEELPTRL
Chain of UniProt O75914 (whole entry, looked up): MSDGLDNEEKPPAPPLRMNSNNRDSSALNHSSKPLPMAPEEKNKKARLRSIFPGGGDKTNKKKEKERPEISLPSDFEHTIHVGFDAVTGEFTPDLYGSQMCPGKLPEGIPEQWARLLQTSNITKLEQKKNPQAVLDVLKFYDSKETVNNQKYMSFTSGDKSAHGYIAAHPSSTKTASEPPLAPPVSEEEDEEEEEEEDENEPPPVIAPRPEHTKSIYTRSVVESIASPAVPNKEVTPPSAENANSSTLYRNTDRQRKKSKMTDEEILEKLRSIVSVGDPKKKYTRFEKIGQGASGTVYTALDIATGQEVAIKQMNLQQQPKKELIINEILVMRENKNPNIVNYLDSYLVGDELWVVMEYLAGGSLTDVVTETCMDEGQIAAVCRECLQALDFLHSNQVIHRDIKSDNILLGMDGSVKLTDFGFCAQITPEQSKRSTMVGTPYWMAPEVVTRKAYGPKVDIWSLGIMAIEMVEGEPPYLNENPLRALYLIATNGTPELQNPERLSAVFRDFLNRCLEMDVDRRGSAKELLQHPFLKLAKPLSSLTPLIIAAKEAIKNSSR
Chain of UniProt P42680 (whole entry, looked up): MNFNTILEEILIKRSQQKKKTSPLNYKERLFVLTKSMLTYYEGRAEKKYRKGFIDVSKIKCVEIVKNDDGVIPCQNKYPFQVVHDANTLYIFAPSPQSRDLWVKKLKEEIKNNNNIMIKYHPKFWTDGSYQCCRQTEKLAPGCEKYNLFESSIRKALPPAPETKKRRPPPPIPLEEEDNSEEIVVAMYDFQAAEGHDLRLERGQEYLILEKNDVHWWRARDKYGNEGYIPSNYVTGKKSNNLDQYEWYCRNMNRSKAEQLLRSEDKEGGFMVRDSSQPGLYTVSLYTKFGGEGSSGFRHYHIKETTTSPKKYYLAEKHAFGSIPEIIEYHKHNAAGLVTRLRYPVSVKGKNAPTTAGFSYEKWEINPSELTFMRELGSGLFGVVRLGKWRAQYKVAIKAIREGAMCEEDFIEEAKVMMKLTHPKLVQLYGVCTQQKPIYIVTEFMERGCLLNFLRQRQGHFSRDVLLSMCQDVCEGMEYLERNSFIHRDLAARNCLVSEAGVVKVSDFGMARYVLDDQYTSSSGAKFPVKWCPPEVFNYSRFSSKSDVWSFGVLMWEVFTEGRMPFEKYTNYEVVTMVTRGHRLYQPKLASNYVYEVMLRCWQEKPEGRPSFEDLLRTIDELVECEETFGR
Chain of UniProt P06493 (whole entry, looked up): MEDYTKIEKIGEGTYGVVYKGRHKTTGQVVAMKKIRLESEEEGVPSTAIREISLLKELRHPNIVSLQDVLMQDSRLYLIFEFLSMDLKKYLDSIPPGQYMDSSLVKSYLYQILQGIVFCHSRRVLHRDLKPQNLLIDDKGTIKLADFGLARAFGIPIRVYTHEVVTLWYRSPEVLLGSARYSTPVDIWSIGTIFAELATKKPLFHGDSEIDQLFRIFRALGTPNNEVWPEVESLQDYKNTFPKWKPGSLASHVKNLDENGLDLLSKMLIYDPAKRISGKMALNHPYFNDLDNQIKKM
Chain of UniProt P61075 (whole entry, looked up): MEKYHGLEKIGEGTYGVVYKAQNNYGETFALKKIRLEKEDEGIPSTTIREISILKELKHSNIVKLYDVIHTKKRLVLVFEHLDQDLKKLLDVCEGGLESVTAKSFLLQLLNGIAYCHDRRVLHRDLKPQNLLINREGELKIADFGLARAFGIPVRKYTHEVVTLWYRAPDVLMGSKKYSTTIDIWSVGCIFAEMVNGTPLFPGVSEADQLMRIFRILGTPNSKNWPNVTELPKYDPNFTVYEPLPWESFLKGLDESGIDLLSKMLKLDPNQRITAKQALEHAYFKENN
Chain of UniProt O15146 (whole entry, looked up): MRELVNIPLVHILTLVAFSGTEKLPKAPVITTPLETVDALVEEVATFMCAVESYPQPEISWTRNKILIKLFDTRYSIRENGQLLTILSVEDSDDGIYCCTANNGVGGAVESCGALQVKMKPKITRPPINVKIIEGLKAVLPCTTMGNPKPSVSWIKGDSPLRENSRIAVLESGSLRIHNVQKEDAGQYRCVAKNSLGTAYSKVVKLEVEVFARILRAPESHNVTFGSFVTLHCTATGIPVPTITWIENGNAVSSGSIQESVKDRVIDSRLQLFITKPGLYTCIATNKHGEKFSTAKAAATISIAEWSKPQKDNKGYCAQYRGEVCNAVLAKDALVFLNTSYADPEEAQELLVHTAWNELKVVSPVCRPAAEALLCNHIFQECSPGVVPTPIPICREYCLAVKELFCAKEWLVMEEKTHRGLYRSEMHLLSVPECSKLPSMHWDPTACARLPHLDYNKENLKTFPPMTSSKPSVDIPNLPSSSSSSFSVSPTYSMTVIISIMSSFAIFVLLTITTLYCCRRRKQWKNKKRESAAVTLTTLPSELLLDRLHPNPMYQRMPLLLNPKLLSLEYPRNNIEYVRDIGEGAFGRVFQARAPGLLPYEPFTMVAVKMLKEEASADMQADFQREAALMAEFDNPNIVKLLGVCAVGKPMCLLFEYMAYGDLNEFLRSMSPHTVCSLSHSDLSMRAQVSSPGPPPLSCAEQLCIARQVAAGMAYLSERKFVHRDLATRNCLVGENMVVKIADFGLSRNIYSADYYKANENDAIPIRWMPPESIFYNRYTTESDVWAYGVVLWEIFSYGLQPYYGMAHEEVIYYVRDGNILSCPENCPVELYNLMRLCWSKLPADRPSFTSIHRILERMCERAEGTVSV
Chain of UniProt Q96NX5 (whole entry, looked up): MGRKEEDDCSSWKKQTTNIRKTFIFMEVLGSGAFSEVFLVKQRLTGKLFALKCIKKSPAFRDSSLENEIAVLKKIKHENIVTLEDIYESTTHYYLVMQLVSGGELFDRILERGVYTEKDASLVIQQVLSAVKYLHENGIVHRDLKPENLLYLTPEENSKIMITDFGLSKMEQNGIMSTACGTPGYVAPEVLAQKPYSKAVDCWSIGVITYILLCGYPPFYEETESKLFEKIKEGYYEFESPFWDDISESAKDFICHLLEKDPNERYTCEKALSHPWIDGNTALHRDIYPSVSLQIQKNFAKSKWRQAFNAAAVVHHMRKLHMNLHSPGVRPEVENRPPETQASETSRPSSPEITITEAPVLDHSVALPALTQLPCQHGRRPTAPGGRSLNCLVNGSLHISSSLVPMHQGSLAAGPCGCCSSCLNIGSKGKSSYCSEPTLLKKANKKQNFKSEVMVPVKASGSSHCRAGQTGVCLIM

Study 1
Cell line: mouse MPNST tumor cells
Technique: high-content immunofluorescence imaging
Refers to: nuclear SOX9
Tested at: 10 µM
Time: 12 h
Notes: mean of 2 replicates
Baseline: DMSO control
Reading: higher = more nuclear SOX9
`CN/C(=N\S(=O)(=O)c1ccc(Cl)cc1)N1C[C@H](c2ccccc2)C(c2ccc(Cl)cc2)=N1` — result for “nuclear SOX9 intensity”: 101 % of DMSO.
`NCC1(CC(=O)O)CCCCC1`: “nuclear SOX9 intensity” 108 % of DMSO and 94.9 % of DMSO.
`C[C@]12CC[C@H]3[C@@H](CC[C@@]45O[C@@H]4C(O)=C(C#N)C[C@]35C)[C@@H]1CC[C@@H]2O` — result for “nuclear SOX9 intensity”: 79.8 % of DMSO.
`CC(C)c1c(CN(C)C(C)Cc2ccccc2)n(C)n(-c2ccccc2)c1=O` (stereo not shown) — result for “nuclear SOX9 intensity”: 95.2 % of DMSO.
`C#C[C@]1(O)CC[C@H]2[C@@H]3CCC4=CC(=O)CCC4=C3C=C[C@@]21CC`: “nuclear SOX9 intensity” 85.4 % of DMSO.
Under “nuclear SOX9 intensity”, `COc1ccc(C(CN(C)C)C2(O)CCCCC2)cc1` (stereo not shown) is recorded as 113 % of DMSO and 71.5 % of DMSO.
`CC1=NN=C(c2ccc(N)cc2)c2cc3c(cc2C1)OCO3` — result for “nuclear SOX9 intensity”: 100 % of DMSO.

Study 2
Target: Calcium/calmodulin-dependent protein kinase type II subunit alpha (CAMK2A, Homo sapiens, UniProt Q9UQM7)
Chain of UniProt Q9UQM7 (whole entry, looked up): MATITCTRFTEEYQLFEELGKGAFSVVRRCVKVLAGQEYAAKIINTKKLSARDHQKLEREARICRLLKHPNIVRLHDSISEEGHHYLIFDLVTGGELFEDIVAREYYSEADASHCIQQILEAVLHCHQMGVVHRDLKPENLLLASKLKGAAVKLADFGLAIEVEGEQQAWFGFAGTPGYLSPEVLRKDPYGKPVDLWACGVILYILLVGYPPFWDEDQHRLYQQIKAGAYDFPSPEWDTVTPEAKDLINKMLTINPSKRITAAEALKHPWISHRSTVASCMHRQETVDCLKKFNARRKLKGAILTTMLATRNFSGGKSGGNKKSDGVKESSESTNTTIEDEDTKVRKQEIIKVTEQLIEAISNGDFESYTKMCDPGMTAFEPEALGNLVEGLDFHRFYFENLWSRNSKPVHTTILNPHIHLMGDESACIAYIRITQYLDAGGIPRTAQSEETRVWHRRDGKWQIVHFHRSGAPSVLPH
Effect on: enzyme activity
Action: inhibitor
Tested at: 10 µM
`COc1ccc2c(c1OC)C(=O)O[C@@H]2[C@H]1c2cc3c(cc2CCN1C)OCO3` has an inhibition of 40%.
For `CN1Cc2c(ccc3c2OCO3)-c2ccc3cc4c(cc3c21)OCO4`, the inhibition was -7%.
The inhibition of `C/C=C(\C)C(=O)O[C@H]1C[C@@H](OC(C)=O)[C@@]2(C(=O)OC)CO[C@H]3[C@@H](O)[C@@](C)([C@]45O[C@@]4(C)[C@H]4C[C@@H]5O[C@@H]5OC=C[C@@]54O)[C@H]4[C@]1(CO[C@]4(O)C(=O)OC)[C@@H]32` is reported as -3%.
For `CC(=O)O[C@H]1[C@H]2O[C@]23[C@@H]2CC[C@]4(O)C[C@@H](O)CC[C@]4(C)[C@H]2CC[C@]3(C)[C@H]1c1ccc(=O)oc1`, the inhibition was -10%.
`CCN1C[C@]2(COC)CC[C@H](OC)[C@]34C1[C@H]([C@H](OC)[C@H]23)[C@@]1(OC(C)=O)C[C@H](OC)[C@@]2(O)C[C@@H]4[C@@H]1[C@H]2OC(=O)c1ccc(OC)cc1` gave an inhibition of -44%.

Study 3
SMILES: O=c1[nH]c2ccccc2n1C1CCN(Cc2ccc(-c3[nH]c4cc5ncnc5cc4nc3-c3ccccc3)cc2)CC1
Effect on: cell-free assay
Tested at: 0.5 µM
It gave 88% for remaining signal (G protein-coupled receptor kinase 6 (GRK6, Homo sapiens, UniProt P43250)).
It gave 102% for remaining signal (Serine/threonine-protein kinase TAO1 (TAOK1, Homo sapiens, UniProt Q7L7X3)).
It gave 98.2% for remaining signal (Platelet-derived growth factor receptor alpha (PDGFRA, Homo sapiens, UniProt P16234)).
For Serine/threonine-protein kinase PAK 3 (PAK3, Homo sapiens, UniProt O75914): remaining signal read 104%.
Protein kinase C delta type (PRKCD, Homo sapiens, UniProt Q05655) — remaining signal: 98.8%.
It gave 87.3% for remaining signal (G protein-coupled receptor kinase 3 (GRK3, Homo sapiens, UniProt P35626)).
For Cyclin-dependent kinase 6, with cyclin D1 (CDK6, Homo sapiens, UniProt Q00534): remaining signal read 105%.
For Serine/threonine-protein kinase Sgk2 (SGK2, Homo sapiens, UniProt Q9HBY8): remaining signal read 112%.
For Tyrosine-protein kinase Fer (FER, Homo sapiens, UniProt P16591): remaining signal read 99.6%.
The remaining signal was 107% (Dual specificity tyrosine-phosphorylation-regulated kinase 2 (DYRK2, Homo sapiens, UniProt Q92630)).
For Serine/threonine-protein kinase OSR1 (OXSR1, Homo sapiens, UniProt O95747): remaining signal read 102%.
The remaining signal was 96.8% (Muscle, skeletal receptor tyrosine-protein kinase (MUSK, Homo sapiens, UniProt O15146)).
For Tyrosine-protein kinase Tec (TEC, Homo sapiens, UniProt P42680): remaining signal read 162%.
The remaining signal was 106% (Serine/threonine-protein kinase WNK3 (WNK3, Homo sapiens, UniProt Q9BYP7)).
For Calcium/calmodulin-dependent protein kinase type 1G (CAMK1G, Homo sapiens, UniProt Q96NX5): remaining signal read 101%.
For Serine/threonine-protein kinase pim-3 (PIM3, Homo sapiens, UniProt Q86V86): remaining signal read 106%.
The remaining signal was 85% (Cyclin-dependent kinase 1, with cyclin B (CDK1, Homo sapiens, UniProt P06493)).

Other studies, line by line
`Cc1nc(Cl)c(Cl)n1Cc1ccc(Cl)nc1` gave a remaining compound of 65.9% (human, microsomes or S9; 2 µM, 0.5 h).
The remaining binding of `N#Cc1ccc(Nc2ccc3[nH]c(=O)[nH]c3c2)c(Cl)c1` is reported as 100% (Serine/threonine-protein kinase PknB (pknB, Mycobacterium tuberculosis, UniProt P9WI81); cell-free assay, competition with immobilised ligand; 1 µM).
The remaining compound of `Cc1ccc(C2CC(c3c(O)[nH]c(=O)n(C)c3=O)=NN2)s1` (stereo not shown) is reported as 32.1% (mouse, microsomes or S9; 2 µM, 0.5 h).
For `CNC(=O)Nc1ccc2c(c1)[C@]1(CC2)OC(=O)N(CC(=O)N(Cc2ccc(F)cc2)[C@@H](C)C(F)(F)F)C1=O`, the inhibition was -3.43% (5-hydroxytryptamine receptor 2C (HTR2C, Homo sapiens, UniProt P28335); binding, radioligand binding; 10 µM).
The remaining compound of `C/C(NN1CCCCCC1)=C1\C(=O)N(c2ccccc2C)C(=O)N=C1O` is reported as 10.5% (mouse, microsomes or S9; 2 µM, 0.5 h).
`O=C(Nc1ccc(Oc2ccc(F)cc2)cc1)N1CCc2ncccc2[C@H]1c1ccc(F)cc1` has a remaining binding of 87% (Cyclin-dependent kinase 2 homolog (CRK2, Plasmodium falciparum, UniProt P61075); cell-free assay, competition with immobilised ligand; 1 µM).
With `Cc1cc(C#N)cc(C(=O)NCc2ccc3c(c2)OCO3)c1NC(=O)c1cc(Br)nn1-c1ncccc1Cl` the remaining compound was 41.8% (human, microsomes or S9; 2 µM, 0.5 h).
The remaining binding of `O=C(NCc1ncc(C(F)(F)F)cc1Cl)c1ccc2c(c1)C1(CCS(=O)(=O)CC1)[C@@H](C1CC1)N2S(=O)(=O)c1ccc(F)cc1` is reported as 100% (Calcium-dependent protein kinase 1 (CDPK1, Plasmodium falciparum, UniProt P62344); cell-free assay, competition with immobilised ligand; 1 µM).

Some of these lines once more (other studies, line by line):
`O=C(Nc1ccc(Oc2ccc(F)cc2)cc1)N1CCc2ncccc2[C@H]1c1ccc(F)cc1` has a remaining binding of 87% (Cyclin-dependent kinase 2 homolog (CRK2, Plasmodium falciparum, UniProt P61075); cell-free assay, competition with immobilised ligand; 1 µM).
The remaining binding of `N#Cc1ccc(Nc2ccc3[nH]c(=O)[nH]c3c2)c(Cl)c1` is reported as 100% (Serine/threonine-protein kinase PknB (pknB, Mycobacterium tuberculosis, UniProt P9WI81); cell-free assay, competition with immobilised ligand; 1 µM).
